Results gathered from unrelated publications.
A part holds a random share of what one study measured. Values joined by “and” are separate records of one study, mostly repeats; a detail may differ.
Sequence of UniProt Q8NEV4 (whole entry, looked up): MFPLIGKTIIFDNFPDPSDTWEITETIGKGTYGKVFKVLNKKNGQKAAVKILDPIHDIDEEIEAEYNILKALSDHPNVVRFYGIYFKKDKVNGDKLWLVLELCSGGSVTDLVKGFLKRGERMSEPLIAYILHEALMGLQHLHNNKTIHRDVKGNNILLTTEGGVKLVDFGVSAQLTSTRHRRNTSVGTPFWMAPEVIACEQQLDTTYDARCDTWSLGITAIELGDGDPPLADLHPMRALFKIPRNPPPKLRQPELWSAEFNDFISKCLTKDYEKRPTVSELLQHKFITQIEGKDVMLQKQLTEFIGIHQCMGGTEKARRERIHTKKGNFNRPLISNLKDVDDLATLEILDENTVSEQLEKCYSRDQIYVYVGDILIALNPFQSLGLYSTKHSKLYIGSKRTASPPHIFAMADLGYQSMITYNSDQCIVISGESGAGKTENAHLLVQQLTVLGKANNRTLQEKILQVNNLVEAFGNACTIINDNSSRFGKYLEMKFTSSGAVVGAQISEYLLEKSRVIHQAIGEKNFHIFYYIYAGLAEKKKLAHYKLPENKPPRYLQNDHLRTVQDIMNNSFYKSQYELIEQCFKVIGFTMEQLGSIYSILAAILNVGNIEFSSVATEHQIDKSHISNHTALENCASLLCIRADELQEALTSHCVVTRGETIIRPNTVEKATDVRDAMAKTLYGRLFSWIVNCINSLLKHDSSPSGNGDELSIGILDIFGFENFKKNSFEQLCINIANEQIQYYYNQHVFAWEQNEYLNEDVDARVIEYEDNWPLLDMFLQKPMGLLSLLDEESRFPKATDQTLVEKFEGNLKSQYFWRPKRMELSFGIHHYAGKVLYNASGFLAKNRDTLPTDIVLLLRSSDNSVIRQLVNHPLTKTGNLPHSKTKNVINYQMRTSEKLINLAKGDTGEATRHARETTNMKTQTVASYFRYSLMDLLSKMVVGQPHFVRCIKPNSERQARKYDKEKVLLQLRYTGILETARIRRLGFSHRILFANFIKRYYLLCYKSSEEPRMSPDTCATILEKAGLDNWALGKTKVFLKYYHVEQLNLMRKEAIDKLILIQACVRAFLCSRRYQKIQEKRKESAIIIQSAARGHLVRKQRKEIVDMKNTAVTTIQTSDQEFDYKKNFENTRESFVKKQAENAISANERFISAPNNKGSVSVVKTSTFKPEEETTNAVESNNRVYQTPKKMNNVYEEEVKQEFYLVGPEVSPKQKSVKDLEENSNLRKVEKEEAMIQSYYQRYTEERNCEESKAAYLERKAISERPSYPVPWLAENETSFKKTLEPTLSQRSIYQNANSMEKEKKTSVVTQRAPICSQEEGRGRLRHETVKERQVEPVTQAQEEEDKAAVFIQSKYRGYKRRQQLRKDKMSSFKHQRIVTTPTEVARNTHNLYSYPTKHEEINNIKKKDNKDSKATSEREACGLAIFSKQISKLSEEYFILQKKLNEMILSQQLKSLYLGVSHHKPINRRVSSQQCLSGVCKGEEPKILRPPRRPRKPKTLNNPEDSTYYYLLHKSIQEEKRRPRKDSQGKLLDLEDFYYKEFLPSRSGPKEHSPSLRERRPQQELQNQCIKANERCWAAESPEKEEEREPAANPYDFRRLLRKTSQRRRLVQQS
Sequence of UniProt Q9HC98 (whole entry, looked up): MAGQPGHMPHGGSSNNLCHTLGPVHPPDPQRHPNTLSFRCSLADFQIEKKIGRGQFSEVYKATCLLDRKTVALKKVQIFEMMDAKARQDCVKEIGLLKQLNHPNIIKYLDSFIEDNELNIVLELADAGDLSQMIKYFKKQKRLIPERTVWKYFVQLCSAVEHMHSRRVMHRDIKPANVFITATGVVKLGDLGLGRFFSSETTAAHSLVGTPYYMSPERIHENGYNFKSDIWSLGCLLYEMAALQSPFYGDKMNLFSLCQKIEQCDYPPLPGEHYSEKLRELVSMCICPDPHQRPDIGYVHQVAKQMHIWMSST
Sequence of UniProt P09619 (whole entry, looked up): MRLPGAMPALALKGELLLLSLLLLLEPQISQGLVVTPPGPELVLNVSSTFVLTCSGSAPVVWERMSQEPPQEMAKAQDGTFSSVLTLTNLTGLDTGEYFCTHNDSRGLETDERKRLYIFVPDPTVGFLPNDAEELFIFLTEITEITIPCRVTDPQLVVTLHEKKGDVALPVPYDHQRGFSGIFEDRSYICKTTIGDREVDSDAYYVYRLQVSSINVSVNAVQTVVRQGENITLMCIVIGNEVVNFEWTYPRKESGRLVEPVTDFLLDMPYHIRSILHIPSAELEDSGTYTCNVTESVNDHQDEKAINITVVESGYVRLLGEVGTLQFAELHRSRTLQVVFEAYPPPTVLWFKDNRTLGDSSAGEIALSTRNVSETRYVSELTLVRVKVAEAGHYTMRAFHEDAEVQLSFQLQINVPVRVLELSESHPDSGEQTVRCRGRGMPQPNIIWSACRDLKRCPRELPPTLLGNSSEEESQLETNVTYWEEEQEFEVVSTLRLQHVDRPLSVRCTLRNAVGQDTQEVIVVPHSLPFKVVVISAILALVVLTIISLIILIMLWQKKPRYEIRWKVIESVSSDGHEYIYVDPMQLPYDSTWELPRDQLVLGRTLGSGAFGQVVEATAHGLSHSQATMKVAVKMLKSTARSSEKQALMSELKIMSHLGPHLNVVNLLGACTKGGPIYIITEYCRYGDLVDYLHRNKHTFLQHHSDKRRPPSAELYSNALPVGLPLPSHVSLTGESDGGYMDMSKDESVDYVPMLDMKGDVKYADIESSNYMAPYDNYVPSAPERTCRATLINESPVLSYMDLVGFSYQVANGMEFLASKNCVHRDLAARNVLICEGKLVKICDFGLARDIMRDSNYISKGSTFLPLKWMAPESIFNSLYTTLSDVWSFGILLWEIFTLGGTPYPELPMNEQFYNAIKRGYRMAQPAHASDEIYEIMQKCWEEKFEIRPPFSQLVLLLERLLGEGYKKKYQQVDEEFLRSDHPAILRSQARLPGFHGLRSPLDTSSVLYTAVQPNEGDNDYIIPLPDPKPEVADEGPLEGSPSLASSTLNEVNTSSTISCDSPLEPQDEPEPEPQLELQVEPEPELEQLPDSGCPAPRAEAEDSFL
Sequence of UniProt Q9UQ88 (whole entry, looked up): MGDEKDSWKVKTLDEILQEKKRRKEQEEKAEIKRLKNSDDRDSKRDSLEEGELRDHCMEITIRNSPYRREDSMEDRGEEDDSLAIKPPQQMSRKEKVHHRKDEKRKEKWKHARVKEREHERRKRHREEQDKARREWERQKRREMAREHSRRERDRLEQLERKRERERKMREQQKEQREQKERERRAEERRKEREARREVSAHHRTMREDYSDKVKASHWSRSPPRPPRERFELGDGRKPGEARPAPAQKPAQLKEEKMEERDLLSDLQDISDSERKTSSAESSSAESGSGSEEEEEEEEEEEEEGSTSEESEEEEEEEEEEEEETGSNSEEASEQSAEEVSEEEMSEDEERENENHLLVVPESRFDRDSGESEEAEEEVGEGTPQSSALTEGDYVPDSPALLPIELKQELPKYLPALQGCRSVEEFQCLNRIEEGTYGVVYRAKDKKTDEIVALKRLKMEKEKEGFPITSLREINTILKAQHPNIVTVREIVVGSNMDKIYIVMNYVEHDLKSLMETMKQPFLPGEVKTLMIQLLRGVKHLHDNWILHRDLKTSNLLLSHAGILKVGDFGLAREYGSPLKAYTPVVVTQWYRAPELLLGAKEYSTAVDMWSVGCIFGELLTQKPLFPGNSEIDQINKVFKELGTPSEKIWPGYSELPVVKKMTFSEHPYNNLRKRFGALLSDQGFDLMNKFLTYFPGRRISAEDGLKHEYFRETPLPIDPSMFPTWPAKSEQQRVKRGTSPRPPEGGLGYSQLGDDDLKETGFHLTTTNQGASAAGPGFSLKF
Sequence of UniProt Q9Y616 (whole entry, looked up): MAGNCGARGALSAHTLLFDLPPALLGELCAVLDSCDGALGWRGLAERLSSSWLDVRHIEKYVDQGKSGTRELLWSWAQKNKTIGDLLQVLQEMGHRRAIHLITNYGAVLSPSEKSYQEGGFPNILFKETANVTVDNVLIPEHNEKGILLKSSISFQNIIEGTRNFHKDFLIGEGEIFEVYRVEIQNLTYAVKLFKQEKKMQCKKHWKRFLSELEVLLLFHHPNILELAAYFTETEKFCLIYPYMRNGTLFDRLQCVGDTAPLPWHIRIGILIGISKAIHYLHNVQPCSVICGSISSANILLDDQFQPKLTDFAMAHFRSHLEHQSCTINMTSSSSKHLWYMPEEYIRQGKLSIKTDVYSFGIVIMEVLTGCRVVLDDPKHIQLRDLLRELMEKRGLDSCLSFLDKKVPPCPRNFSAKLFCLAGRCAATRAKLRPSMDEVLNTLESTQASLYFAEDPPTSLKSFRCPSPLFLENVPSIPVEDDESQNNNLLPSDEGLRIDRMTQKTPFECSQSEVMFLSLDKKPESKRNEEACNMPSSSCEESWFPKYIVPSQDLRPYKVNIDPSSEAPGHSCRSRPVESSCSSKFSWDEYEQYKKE
Sequence of UniProt Q9HBY8 (whole entry, looked up): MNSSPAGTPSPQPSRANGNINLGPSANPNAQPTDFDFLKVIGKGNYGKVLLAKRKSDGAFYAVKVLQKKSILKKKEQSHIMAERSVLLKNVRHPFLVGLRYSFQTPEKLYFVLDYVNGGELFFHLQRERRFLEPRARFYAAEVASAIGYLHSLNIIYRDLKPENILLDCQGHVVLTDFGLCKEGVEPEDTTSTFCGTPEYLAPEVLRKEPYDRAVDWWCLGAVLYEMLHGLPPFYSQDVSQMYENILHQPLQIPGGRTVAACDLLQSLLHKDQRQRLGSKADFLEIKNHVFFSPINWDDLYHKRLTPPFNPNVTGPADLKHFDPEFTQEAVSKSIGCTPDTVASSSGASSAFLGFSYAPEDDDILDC

Sample 1 — technique: RNAcompete; form: RNA; medium: in vitro; concentration: 20 nM; notes: 7-mer, probes averaged, single round; baseline: mean of 7-mers; reading: higher = stronger binding
Target: PABPC1L2, full length, GST fusion (mouse, UniProt A0ABA7IW68)
Target sequence (chain): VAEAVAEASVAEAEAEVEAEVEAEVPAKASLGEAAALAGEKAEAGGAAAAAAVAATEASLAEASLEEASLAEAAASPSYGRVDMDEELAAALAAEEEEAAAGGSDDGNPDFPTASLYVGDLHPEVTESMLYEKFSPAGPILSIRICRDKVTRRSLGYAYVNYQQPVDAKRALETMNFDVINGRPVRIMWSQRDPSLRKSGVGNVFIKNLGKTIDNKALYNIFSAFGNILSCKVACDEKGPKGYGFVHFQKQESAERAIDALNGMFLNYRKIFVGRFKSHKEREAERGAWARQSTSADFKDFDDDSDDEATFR
`CUUUUGG` gave a 7-mer Z-score of -0.05.
`CUAUCGC` gave a 7-mer Z-score of -0.277.
The 7-mer Z-score of `CACAAGA` is reported as 0.102.
With `UAGGCGG` the 7-mer Z-score was 0.309.
`UUGAAUA` gave a 7-mer Z-score of -0.0609.
With `CUCCUUC` the 7-mer Z-score was -0.429.
With `GCUCUGC` the 7-mer Z-score was -0.295.
For `GGCACGC`, the 7-mer Z-score was -0.0156.

Sample 2 — technique: competition with immobilised ligand; concentration: 1 µM
SMILES: Cc1nc(Cc2cccc(C(F)(F)F)c2)sc1-c1ccc(C(N)=O)nc1
Aurora kinase B (AURKB, Homo sapiens, UniProt Q96GD4); cell-free assay — remaining binding: 100%.
For PDGFRB (Homo sapiens, UniProt P09619); cell-free assay: remaining binding read 92%.
For CAMKK2 (Homo sapiens, UniProt Q96RR4); cell-free assay: remaining binding read 91%.
For FER (Homo sapiens, UniProt P16591); cell-free assay: remaining binding read 100%.
For PIK3C3 (Homo sapiens, UniProt Q8NEB9); cell-free assay: remaining binding read 100%.
For KDR (Homo sapiens, UniProt P35968); cell-free assay: remaining binding read 86%.
For BLK (Homo sapiens, UniProt P51451); cell-free assay: remaining binding read 100%.
NEK6 (Homo sapiens, UniProt Q9HC98); cell-free assay — remaining binding: 90%.
For CSNK1E (Homo sapiens, UniProt P49674); cell-free assay: remaining binding read 100%.
For ACVR2B (Homo sapiens, UniProt Q13705); binding: remaining binding read 86%.
The remaining binding was 100% (DDR2 (Homo sapiens, UniProt Q16832); cell-free assay).
PRKX (Homo sapiens, UniProt P51817); cell-free assay — remaining binding: 100%.
The remaining binding was 95% (SGK2 (Homo sapiens, UniProt Q9HBY8); cell-free assay).
IRAK3 (Homo sapiens, UniProt Q9Y616); cell-free assay — remaining binding: 100%.
It gave 92% for remaining binding (CDK11A (Homo sapiens, UniProt Q9UQ88); binding).
The remaining binding was 98% (Myosin-IIIa (MYO3A, Homo sapiens, UniProt Q8NEV4); binding).
The remaining binding was 100% (CDK2 (Homo sapiens, UniProt P24941); cell-free assay).
It gave 100% for remaining binding (FLT1 (Homo sapiens, UniProt P17948); cell-free assay).
For EGFR (Homo sapiens, UniProt P00533, del747-752/P753S); cell-free assay: remaining binding read 83%.

Sample 3 — host: human; medium: microsomes or S9; concentration: 2 µM; time: 0.5 h
`c1cnc2c(C3NCCc4c3[nH]c3ccccc43)cccc2c1` (centres unmarked) has a remaining compound of 101%.
The remaining compound of `O=C(c1scc2c1OCCO2)N1CCCCCC1` is reported as 55.2%.
`Cc1cc(C)nc(Nn2c(-c3ccccc3)nc3ccccc3c2=O)n1` has a remaining compound of 52.5%.

Mixed results
For `CC(=O)N[C@@H](Cc1c[nH]c2ccccc12)C(=O)N[C@@H](CCC(=O)C=[N+]=[N-])C(=O)OC(C)C`, “log2 fold change” read -1.1 (item: S-lactoylglutathione; mouse, EL4 tumour-bearing, EL4 tumour; dose not given; baseline: vehicle).
`CC(C)C[C@@H]1NC(=O)[C@H](C)NC(=O)[C@H](CCC(=O)N2CCCC2)NC(=O)[C@H](CC(C)C)NC(=O)[C@H](C(C)C)NC(=O)[C@H](CC(C)C)NC(=O)[C@@H](CC(C)C)NC1=O` has a logD 1,9-decadiene/water of 0.662 log units (PRP chromatography; linear fit, 1 mL).
The inhibition of `CC(C)(C)NC(=O)[C@@H]1C[C@@H]2CCCC[C@@H]2CN1C[C@@H](O)[C@H](Cc1ccccc1)NC(=O)[C@H](CC(N)=O)NC(=O)c1ccc2ccccc2n1` is reported as 11.7% (Sarcocystis neurona; parasite growth; 10 µM, secondary screen).
The logD 1,9-decadiene/water of `CC(C)C[C@@H]1NC(=O)[C@H](Cc2cscn2)NC(=O)[C@@H](CC(C)C)NC(=O)[C@H](CC(C)C)NC(=O)[C@@H](Cc2cscn2)NC(=O)[C@H](CC(C)C)NC(=O)[C@@H](CC(C)C)NC1=O` is reported as -4.39 log units (PRP chromatography; linear fit, 1 mL).
`Ic1ccc(Nc2nc(NCCN3CCOCC3)nc(N3CCOCC3)n2)cc1` gave a reporter signal of 120% and 108% and 101% and 105% (HEK293T ATF4-firefly luciferase reporter; integrated stress response, item: ATF4; 1 µM, without ISRIB; baseline: DMSO).
The viability of `CCCCC1=NC2(CCCC2)C(=O)N1Cc1ccc(-c2ccccc2-c2nnn[nH]2)cc1` is reported as 91.4% (HaCaT; 100 µM, 36 h).
The inhibition of `Cc1nc2n(c(=O)c1CCN1CCC(c3noc4cc(F)ccc34)CC1)CCCC2` is reported as -18.4% (Sarcocystis neurona; parasite growth; 10 µM, secondary screen).
The ATP/ADP ratio of `O=C(COc1ccccc1P(=O)(O)O)NCC(F)(F)c1cccc(F)c1` is reported as 5.11 and 5.25 (INS-1; concentration not given, high glucose).
With `CN(C(=O)c1ccn2ncc(-c3ccc(C(N)=O)cc3)c2c1)c1ccc(C#N)cn1` the plasma concentration was 0.487 µM (C57BL/6 IFN-γ knockout mouse, female, plasma; oral, 10 mg/kg, 4 h).
The viability of `CO/N=C(\C(=O)N[C@@H]1C(=O)N2C(C(=O)O)=C(C[N+]3(C)CCCC3)CS[C@H]12)c1csc(N)n1` is reported as 103% (A-375; 100 µM, 60 h).
Under “patients with constipation”, `CC(C)n1cnc(-c2ccc(F)cc2)c1-c1ncc(C(=O)Nc2ccc(N3CCN(C)CC3)cc2)[nH]1` is recorded as 0% (phase 2a trial; idiopathic pulmonary fibrosis patients; 30 mg once daily, adverse event grade 5).
